Experimental data gathered from unrelated publications.
Compare with care: the assays were run in different laboratories. ± marks the error that the study gave.
Target: Sodium-dependent serotonin transporter (SLC6A4, Homo sapiens, UniProt P31645)
UniProt P31645, sequence (whole entry, looked up): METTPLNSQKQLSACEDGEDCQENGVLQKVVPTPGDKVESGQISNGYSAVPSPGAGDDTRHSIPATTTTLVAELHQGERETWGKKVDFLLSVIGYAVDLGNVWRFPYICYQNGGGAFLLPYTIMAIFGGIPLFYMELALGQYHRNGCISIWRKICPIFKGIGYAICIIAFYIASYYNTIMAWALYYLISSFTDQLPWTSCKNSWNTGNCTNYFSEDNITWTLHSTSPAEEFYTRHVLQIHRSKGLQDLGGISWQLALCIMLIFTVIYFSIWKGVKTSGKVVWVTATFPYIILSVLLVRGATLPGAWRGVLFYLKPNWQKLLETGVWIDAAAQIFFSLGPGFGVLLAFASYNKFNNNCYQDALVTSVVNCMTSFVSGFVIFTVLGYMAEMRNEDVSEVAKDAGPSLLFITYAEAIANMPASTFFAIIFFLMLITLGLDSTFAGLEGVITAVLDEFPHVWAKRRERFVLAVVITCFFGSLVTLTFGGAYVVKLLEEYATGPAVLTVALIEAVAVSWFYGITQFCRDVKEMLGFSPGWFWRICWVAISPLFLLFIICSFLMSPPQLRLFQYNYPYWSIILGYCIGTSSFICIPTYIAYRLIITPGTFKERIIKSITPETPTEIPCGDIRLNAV

c1cncc([C@@H]2CCCN2)c1 — inhibition (binding; 50 µM, mean): -16.5%
CCN(CC)CCCC[C@H](NC(=O)[C@H](CC(C)C)NC(=O)[C@H](C)NC(=O)[C@H](Cc1ccccc1)NC(=O)c1ccc(C(C)(C)C)cc1)C(=O)N[C@@H](CO)C(=O)OC — specific binding (antagonist, radioligand binding; 10 µM; reference: control binding): 94.9%
NCCc1c[nH]c2ccc(O)cc12 — Emax (steady-state current, whole-cell patch clamp; HEK293; 10 µM): 94%
COC(=O)[C@H]1[C@@H](OC(=O)c2ccccc2)C[C@@H]2CC[C@H]1N2C — Hill coefficient (binding): -1.12 ± 0.1
O=C(Nc1cccnn1)N1CCC(=Cc2cccc(Oc3ccc(C(F)(F)F)cn3)c2)CC1 — inhibition (radioligand binding, inhibitor; 10 µM, human, together with: [3H]paroxetine): 21%
Cn1cccc1-c1cccnc1 — inhibition (binding; 50 µM): -14%
Nc1ncc(-c2nc(N3CCOCC3)nc(N3CCOCC3)n2)c(C(F)F)n1 — radioligand binding (10 µM, together with: antagonist radioligand): 94%
CCCC[C@@H](NC(=O)[C@@H](N)Cc1ccc(O)cc1)C(=O)NCC(=O)N[C@@H](Cc1ccc(F)cc1)C(=O)N(C)CCC[C@@]1(c2ccc(F)cc2)OCc2cc(C#N)ccc21 — inhibition (10 µM): < 50%
O=C(Nc1cnccc1Cl)N1CCN(Cc2ccc3c(c2)OC(F)(F)O3)CC1 — inhibition (radioligand binding, inhibitor; 10 µM, human, together with: [3H]paroxetine): 10%
Cc1cc(O)cc(C)c1C[C@H](N)C(=O)N[C@H](C)C(=O)NCC(=O)N[C@@H](Cc1ccc(Cl)cc1)C(=O)N(C)CCC[C@@]1(c2ccc(F)cc2)OCc2cc(C#N)ccc21 — inhibition (10 µM): < 50%
CC(C)CC(=O)OC[C@H]1O[C@@](C#N)(c2ccc3c(N)ncnn23)[C@H](O)[C@@H]1O — inhibition (20 µM): 15%
